Measurements collected from several papers.
A part holds a random share of what one study measured. Several values in a cell are separate wells, animals, samples, runs or records.
Sequence of UniProt P49759 (whole entry, looked up): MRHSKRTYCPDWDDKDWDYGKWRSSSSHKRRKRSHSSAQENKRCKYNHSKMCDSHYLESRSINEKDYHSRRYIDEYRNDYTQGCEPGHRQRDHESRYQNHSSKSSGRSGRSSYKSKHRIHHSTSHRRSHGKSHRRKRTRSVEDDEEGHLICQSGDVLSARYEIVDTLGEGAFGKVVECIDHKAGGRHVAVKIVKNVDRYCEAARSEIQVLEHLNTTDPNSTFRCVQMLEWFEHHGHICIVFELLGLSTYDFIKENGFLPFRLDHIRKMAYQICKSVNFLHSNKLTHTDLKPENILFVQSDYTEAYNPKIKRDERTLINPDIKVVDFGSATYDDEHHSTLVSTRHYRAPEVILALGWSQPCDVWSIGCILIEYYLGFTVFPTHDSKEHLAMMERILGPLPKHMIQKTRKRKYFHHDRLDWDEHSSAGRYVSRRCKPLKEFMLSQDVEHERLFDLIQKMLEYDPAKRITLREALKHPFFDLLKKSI
Sequence of UniProt Q8N4C8 (whole entry, looked up): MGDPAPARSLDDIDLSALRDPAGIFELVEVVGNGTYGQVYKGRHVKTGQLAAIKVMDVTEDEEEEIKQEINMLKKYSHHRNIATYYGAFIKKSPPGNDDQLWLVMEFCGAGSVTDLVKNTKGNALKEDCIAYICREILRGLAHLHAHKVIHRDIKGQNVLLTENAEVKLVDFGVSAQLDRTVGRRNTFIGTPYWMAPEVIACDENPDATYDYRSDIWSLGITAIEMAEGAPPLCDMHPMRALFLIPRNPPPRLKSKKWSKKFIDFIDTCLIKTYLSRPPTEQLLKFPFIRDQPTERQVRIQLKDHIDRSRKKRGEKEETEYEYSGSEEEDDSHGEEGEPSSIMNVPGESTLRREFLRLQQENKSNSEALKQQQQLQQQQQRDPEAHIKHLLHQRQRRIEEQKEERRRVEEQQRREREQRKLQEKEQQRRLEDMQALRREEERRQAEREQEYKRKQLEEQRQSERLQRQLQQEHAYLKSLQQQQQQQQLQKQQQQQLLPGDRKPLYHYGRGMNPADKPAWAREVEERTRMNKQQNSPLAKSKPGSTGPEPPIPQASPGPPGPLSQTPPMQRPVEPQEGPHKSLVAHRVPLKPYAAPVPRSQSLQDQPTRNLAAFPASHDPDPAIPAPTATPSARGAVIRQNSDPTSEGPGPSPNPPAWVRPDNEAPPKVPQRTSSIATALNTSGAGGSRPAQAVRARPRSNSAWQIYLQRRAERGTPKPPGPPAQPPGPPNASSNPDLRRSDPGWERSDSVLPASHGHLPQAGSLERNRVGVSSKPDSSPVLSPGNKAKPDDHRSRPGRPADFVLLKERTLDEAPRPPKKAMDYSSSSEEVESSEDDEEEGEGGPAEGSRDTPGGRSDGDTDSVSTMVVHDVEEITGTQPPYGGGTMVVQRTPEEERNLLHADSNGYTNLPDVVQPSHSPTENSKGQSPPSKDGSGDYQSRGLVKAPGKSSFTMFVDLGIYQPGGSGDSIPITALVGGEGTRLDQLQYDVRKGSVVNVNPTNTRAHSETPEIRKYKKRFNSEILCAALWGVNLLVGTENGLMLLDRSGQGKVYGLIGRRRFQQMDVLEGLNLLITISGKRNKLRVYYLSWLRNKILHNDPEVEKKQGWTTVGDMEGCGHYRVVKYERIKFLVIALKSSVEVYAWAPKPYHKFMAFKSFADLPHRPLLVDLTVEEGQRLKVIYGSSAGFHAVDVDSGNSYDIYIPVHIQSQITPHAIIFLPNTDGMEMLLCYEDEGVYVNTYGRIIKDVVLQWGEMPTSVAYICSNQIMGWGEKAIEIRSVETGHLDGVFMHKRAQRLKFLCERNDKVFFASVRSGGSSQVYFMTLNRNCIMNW
Sequence of UniProt Q13705 (whole entry, looked up): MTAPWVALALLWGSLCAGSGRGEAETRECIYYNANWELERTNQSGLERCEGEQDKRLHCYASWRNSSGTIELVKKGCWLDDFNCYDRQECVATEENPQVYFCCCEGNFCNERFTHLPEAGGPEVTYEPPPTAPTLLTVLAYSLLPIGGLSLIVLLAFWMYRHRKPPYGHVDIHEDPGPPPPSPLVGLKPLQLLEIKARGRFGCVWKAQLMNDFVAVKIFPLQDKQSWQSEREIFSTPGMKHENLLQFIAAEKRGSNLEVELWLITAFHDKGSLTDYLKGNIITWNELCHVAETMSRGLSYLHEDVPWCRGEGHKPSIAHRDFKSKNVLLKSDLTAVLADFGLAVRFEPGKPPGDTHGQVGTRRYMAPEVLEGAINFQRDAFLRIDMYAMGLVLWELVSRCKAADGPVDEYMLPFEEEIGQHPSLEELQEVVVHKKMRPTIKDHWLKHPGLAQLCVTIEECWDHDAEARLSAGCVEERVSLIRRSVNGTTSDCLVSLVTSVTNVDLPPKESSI

Sample 1
Cell line: HaCaT
Concentration: 100 µM
Time: 36 h
`CCN(CC)CCNC(=O)c1cc(Br)c(N)cc1OC` has a viability of 78.1%.
The viability of `Cc1ccc(=O)n(-c2ccccc2)c1` is reported as 108%.
For `O=C(O)[C@H]1O[C@H](O)[C@H](O)[C@@H](O)[C@@H]1O`, the viability was 55.3%.
`Cc1ccccc1N1C(=O)c2cc(S(N)(=O)=O)c(Cl)cc2NC1C` (stereo not drawn) has a viability of 75.6%.
`CC(C)(C)NCC(O)c1ccc(O)c(CO)c1` (stereo not drawn) has a viability of 80.9%.
`CC(C)(C)C(=O)OCOP(=O)(COCCn1cnc2c(N)ncnc21)OCOC(=O)C(C)(C)C` has a viability of 19.8%.

Sample 2
Target: Serine/threonine-protein kinase TAO1 (TAOK1, Homo sapiens, UniProt Q7L7X3)
Read-out: enzyme activity
Action: inhibitor
Concentration: 0.5 µM
Baseline: control
Residues (Q7L7X3 1-1001): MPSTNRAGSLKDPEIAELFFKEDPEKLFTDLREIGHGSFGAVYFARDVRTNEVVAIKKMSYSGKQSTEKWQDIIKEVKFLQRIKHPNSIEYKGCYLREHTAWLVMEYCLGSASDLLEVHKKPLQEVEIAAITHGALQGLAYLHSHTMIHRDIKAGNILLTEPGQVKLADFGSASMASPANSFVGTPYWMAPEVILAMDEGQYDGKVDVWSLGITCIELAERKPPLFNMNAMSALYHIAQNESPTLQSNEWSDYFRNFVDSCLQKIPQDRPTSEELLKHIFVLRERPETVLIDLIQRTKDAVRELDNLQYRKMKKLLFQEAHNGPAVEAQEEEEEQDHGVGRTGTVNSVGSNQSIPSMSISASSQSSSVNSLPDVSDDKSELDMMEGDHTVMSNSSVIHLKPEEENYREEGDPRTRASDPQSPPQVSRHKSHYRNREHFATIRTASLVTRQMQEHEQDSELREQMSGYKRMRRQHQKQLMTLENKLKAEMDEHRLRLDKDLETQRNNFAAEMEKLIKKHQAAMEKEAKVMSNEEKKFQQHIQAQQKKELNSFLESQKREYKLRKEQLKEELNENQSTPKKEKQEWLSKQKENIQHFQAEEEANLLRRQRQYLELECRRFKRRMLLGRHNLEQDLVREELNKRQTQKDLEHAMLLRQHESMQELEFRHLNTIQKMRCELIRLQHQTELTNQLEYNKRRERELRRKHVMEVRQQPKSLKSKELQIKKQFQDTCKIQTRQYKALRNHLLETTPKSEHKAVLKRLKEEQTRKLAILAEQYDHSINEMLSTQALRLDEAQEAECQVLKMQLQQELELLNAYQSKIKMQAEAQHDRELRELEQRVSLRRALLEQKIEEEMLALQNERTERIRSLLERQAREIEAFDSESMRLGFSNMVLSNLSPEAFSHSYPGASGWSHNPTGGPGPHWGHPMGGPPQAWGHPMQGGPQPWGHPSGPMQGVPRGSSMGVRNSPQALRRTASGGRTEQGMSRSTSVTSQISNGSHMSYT
`O=C1NC(=O)C(c2cn(CCCn3ccnc3)c3ccccc23)=C1Nc1ccccc1` has a remaining activity of 100%.
`Cc1cccc(-c2[nH]c(C(C)(C)C)nc2-c2ccc3c(c2)OCO3)n1` gave a remaining activity of 97.6%.
With `NCCNc1ncc(C(N)=O)c(Nc2cccc(C(F)(F)F)c2)n1` the remaining activity was 90.6%.
With `CCOC(=O)c1c(C)[nH]c(/C=C2\C(=O)Nc3ccccc32)c1C` the remaining activity was 100%.
`N#CC(C#N)=C(N)/C(C#N)=C/c1ccc(O)cc1` has a remaining activity of 93.2%.
`O=c1c2ccccc2[nH]c(=S)n1CCN1CCC(=C(c2ccc(F)cc2)c2ccc(F)cc2)CC1` gave a remaining activity of 101%.
`O=C1NC(=O)C(c2cn(CCCO)c3ncccc23)=C1c1cnccn1` has a remaining activity of 132%.
With `COc1ccc(CNC(=O)Nc2ncc([N+](=O)[O-])s2)cc1` the remaining activity was 101%.
The remaining activity of `Cc1ccc(NC(=O)c2ccc(CN3CCN(C)CC3)cc2)cc1Nc1nc(-c2cccnc2)cs1` is reported as 98.5%.
`Cn1c2ccccc2c2c3c(c4c5ccccc5n(CCC#N)c4c21)CNC3=O` gave a remaining activity of 43.9%.
`Oc1ccc(-c2nc(-c3ccncc3)c(-c3ccc(F)cc3)[nH]2)cc1` has a remaining activity of 98.5%.
`CC(C)[C@H](CO)Nc1nc(Nc2cc(N)cc(Cl)c2)c2ncn(C(C)C)c2n1` gave a remaining activity of 79.9%.
The remaining activity of `Cn1sc(=O)n(Cc2ccccc2)c1=O` is reported as 88.9%.
`Cc1ccc(Nc2nccc(N(C)c3ccc4c(C)n(C)nc4c3)n2)cc1S(N)(=O)=O` gave a remaining activity of 28.9%.
With `Nc1[nH]nc2nc3ccccc3nc12` the remaining activity was 101%.

Sample 3
SMILES: O=C(NCCCC1CCCCC1)c1ccc(CNC(=O)c2cnn(-c3ccccc3)c2C(F)(F)F)cc1
Read-out: cell-free assay
Technique: competition with immobilised ligand
Concentration: 0.1 µM
It gave 100% for remaining binding (Receptor-type tyrosine-protein kinase FLT3 (FLT3, Homo sapiens, UniProt P36888, D835H)).
Serine/threonine-protein kinase TAO2 (TAOK2, Homo sapiens, UniProt Q9UL54) — remaining binding: 89%.
Dual specificity protein kinase CLK1 (CLK1, Homo sapiens, UniProt P49759) — remaining binding: 96%.
It gave 97% for remaining binding (Misshapen-like kinase 1 (MINK1, Homo sapiens, UniProt Q8N4C8)).
It gave 96% for remaining binding (Activin receptor type-2B (ACVR2B, Homo sapiens, UniProt Q13705)).

Sample 4
Cell line: mouse MPNST tumor cells
Technique: high-content nuclear imaging
Refers to: cell number
Concentration: 10 µM
Time: 12 h
Notes: mean of 2 replicates
Baseline: plate mean
Direction: higher = more cells
`CN(Cc1cnc2nc(N)nc(N)c2n1)c1ccc(C(=O)N[C@@H](CCC(=O)O)C(=O)O)cc1` has a nuclei count of -1.05 z-score.
`C#CCN(C)Cc1ccccc1` has a nuclei count of 1.66 z-score and -1.74 z-score.
For `COc1ccc(-c2csc(NC(=O)[C@H]3CCCCN3S(=O)(=O)c3ccc(C)cc3)n2)cc1`, the nuclei count was 2.92 z-score.
`C[C@H](CCC(=O)O)[C@H]1CC[C@H]2[C@@H]3CC[C@@H]4C[C@H](O)CC[C@]4(C)[C@H]3CC[C@]12C` gave a nuclei count of 0.13 z-score.
For `CC[C@@H]1C(=O)OC[C@@H]1Cc1cncn1C`, the nuclei count was 1.12 z-score and -0.66 z-score.
`Cc1cc(C(=O)N2Cc3cnn(C)c3Nc3ccccc32)ccc1CNC(=O)N1CCC[C@H]1C(=S)N1CCCN(C)CC1` has a nuclei count of 0.991 z-score.
`CN(N=O)C(=O)NC1C(O)OC(CO)C(O)C1O` (stereo not drawn) gave a nuclei count of 1.51 z-score.
